Results pooled from the literature.
Compare with care: the assays were run in different laboratories. “And” joins repeats or separate records; there may be more than shown. Numbers after ± are the reported error.
Chain of UniProt P11388 (whole entry, looked up): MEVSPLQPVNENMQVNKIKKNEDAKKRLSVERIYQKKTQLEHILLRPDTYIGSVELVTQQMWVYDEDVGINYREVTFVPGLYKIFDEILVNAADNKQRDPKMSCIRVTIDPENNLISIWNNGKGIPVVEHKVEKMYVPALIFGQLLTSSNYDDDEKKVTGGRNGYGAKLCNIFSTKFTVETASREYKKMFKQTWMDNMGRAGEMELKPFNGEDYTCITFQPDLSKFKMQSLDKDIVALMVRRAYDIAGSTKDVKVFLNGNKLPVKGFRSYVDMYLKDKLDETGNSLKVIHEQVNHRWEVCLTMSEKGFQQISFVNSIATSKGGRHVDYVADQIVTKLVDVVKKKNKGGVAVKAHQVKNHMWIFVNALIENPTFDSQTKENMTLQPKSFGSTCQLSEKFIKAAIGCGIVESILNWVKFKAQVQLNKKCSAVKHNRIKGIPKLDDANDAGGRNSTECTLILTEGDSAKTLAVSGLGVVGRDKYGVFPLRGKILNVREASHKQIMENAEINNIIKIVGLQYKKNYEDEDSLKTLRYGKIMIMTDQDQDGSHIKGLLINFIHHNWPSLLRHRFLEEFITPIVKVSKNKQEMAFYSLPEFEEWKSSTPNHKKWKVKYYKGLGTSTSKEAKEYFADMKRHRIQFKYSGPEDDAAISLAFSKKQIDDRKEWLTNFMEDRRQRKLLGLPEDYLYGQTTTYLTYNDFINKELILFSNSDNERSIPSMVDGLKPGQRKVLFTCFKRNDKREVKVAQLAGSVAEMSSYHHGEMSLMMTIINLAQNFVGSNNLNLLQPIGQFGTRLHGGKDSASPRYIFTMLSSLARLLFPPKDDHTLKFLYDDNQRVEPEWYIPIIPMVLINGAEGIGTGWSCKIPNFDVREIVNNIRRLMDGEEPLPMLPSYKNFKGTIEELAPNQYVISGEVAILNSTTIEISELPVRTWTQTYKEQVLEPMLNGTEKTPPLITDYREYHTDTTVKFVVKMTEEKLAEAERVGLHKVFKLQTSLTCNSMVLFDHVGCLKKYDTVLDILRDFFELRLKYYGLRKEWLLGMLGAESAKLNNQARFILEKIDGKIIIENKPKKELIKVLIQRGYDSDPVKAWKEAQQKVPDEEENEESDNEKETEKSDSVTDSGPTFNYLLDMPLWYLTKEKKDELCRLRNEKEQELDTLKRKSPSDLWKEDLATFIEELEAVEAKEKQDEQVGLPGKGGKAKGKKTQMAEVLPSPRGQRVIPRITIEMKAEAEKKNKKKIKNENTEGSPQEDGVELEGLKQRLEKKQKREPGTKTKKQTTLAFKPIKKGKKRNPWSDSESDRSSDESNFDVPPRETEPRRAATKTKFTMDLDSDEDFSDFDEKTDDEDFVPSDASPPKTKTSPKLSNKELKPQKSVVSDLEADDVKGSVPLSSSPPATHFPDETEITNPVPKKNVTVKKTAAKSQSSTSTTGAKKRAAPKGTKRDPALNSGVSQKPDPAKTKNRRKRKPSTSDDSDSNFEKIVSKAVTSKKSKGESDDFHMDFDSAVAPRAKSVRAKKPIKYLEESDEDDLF

The ΔH of `OC[C@H]1O[C@@H](O[C@@H]2[C@@H](O)[C@H](O[C@@H]3[C@@H](O)[C@H](O[C@@H]4[C@@H](O)[C@H](O[C@@H]5[C@@H](O)[C@H](O[C@H]6[C@H](O)[C@@H](CO)OC(O)[C@@H]6O)O[C@H](CO)[C@H]5O)O[C@H](CO)[C@H]4O)O[C@H](CO)[C@H]3O)O[C@H](CO)[C@H]2O)[C@H](O)[C@@H](O)[C@@H]1O` (stereo partly shown) is reported as -39.4 kcal/mol (Bacteroides thetaiotaomicron; binding, ITC; pH 7.0, 25 °C, middle domain).
The EC50 of `Cc1c(S(=O)(=O)N2CCc3[nH]ncc3C2)cc(C(=O)NCc2c(F)ccc3occc23)n1C` is reported as 18 nM (SARS-CoV-2; viral replication; Huh7.5, WA1/2020).
For `Fc1ccccc1Cc1nc(-c2nc(C(F)(F)F)n[nH]2)cn2ccnc12`, “subjects with skin TEAEs” read 7.1% (healthy human subjects, both sexes; oral, 10 mg, fasted).
For `C[C@@H](NS(=O)(=O)c1cccc([N+](=O)[O-])c1)c1cccc2ccccc12`, the EC50 was 38000 nM (SARS-CoV-2; viral replication; Vero E6).
Under “relative specific activity”, `[Mg+2]` is recorded as 1 (uncharacterized protein (Bacteroides thetaiotaomicron, UniProt Q8A4G9); phosphatase activity, activator, phosphate release; 5 mM, EDTA-treated enzyme, added: substrate 25 mM; baseline: activity with this ion).
The EC50 of `Cc1c(S(=O)(=O)N2CCn3cncc3C2)cc(C(=O)NCc2c(F)ccnc2N2CCCC2)n1C` is reported as 45 nM (SARS-CoV-2; viral replication; Huh7.5 cells, WA1/2020).
`COC(=O)Nc1c(N)nc(-c2nn(Cc3ccccc3F)c3ncc(F)cc23)nc1N`: “total radioactivity recovered” 98.3% (human, male, urine and feces; oral, 5 mg, 336 h, 14C-labelled, mean; baseline: dose).
The -TΔS of `OC[C@H]1O[C@@H](O[C@@H]2[C@@H](O)[C@H](O[C@H]3[C@H](O)[C@@H](CO)OC(O)[C@@H]3O)O[C@H](CO)[C@H]2O)[C@H](O)[C@@H](O)[C@@H]1O` (stereo partly shown) is reported as -14.7 kcal/mol (Bacteroides thetaiotaomicron; binding, ITC; pH 7.0, 25 °C, distal domain).
`CO/N=C(\C(=O)N[C@@H]1C(=O)N2C(C(=O)O)=C(COC(C)=O)CS[C@H]12)c1csc(N)n1` has an MIC of > 16 µg/mL (Pseudomonas aeruginosa; clinical isolate RKI-No_480/15).
Under infection efficiency, `heparin` is recorded as “decreased” (feline infectious peritonitis virus; plaque; fcwf-4, type I strain KU-2; concentration not given).
`CCCc1nn(C)c2c(=O)[nH]c(-c3cc(S(=O)(=O)N4CCN(C)CC4)ccc3OCC)nc12` gave a Cmax of 398 ng/mL (humans, plasma; 100 mg, phase I DDI study, added: vericiguat).
`N#CCC1CCN(c2nc(Nc3ccc(N4CCC(O)CC4)cc3)c3c(=O)[nH]ncc3n2)CC1`: “serum level change” -1.1 (Olink multiplex, refers to: CDCP1; human, serum; 20 mg, day 15, unit not given; baseline: placebo).
For `Cc1c(S(=O)(=O)N2CCc3c(cnn3C)C2)cc(C(=O)NCc2cccnc2N2CCCC2)n1C`, the EC50 was 4600 nM (SARS-CoV-2; viral replication; Huh7.5 cells, WA1/2020).
`Clc1nc(NCc2ccco2)c2[nH]cnc2n1`: “concentration for poison exon suppression” ≥ 10 µM (B-lymphoblastoid cells; RT-PCR, refers to: GLA poison exon inclusion).
Under “mean relaxed DNA”, `COc1cc([C@@H]2c3cc4c(cc3[C@@H](O[C@@H]3O[C@@H]5CO[C@@H](C)O[C@H]5[C@H](O)[C@H]3O)[C@H]3COC(=O)[C@H]23)OCO4)cc(OC)c1O` is recorded as 52.9% and 77.5% and 99.8% (TOP2A (Homo sapiens, UniProt P11388); DNA relaxation; 10 µM).
The -TΔS of `OC[C@H]1O[C@@H](O[C@@H]2[C@@H](O)[C@H](O[C@@H]3[C@@H](O)[C@H](O[C@H]4[C@H](O)[C@@H](CO)OC(O)[C@@H]4O)O[C@H](CO)[C@H]3O)O[C@H](CO)[C@H]2O)[C@H](O)[C@@H](O)[C@@H]1O` (stereo partly shown) is reported as -4.69 kcal/mol (Bacteroides thetaiotaomicron; binding, ITC; pH 7.0, 25 °C, distal domain).
`Cc1c(S(=O)(=O)N2CCc3n[nH]cc3C2)cc(C(=O)NCc2c(F)ccc3cnn(C)c23)n1C` has an EC50 of 8.7 nM (SARS-CoV-2; viral replication; Huh7.5 cells, WA1/2020).
`CC1COc2ccccc2N1C(=O)C(Cl)Cl` (stereo not shown): “scaled intrinsic clearance” 120 mL/min/g liver (glutathione S-transferase; male rhesus monkey liver cytosol; 5 µM, pH 7.4, added: GSH).
For `COC(=O)Nc1c(N)nc(-c2nn(Cc3ccccc3F)c3ncc(F)cc23)nc1N`, “seated HR maximum increase” read 0.42 bpm (healthy white men; dose not given, day 14, 336 h, LS mean difference, added: sildenafil 50 mg; baseline: placebo).
With `COc1ccccc1CNC(=O)c1cc(S(=O)(=O)N2CCC(C)CC2)c(C)n1C` the EC50 was > 100000 nM (SARS-CoV-2; viral replication; Huh7.5, WA1/2020).
With `CC(C)C[C@H](NC(=O)OCc1ccccc1)C(=O)N[C@H](C=O)C[C@@H]1CCCNC1=O` the EC50 was 20 ± 20 nM (SARS-CoV-2; viral replication, RT-qPCR viral load; Caco-2; 72 h).
`CC(C)C[C@H](NC(=O)OCc1ccccc1)C(=O)N[C@@H](CC1CCNC1=O)C(O)S(=O)(=O)O` (stereo partly shown) gave an EC50 of 1090 ± 250 nM (porcine epidemic diarrhea virus; viral replication, RT-qPCR, refers to: PEDV N gene; Vero-E6).
For `C[C@H]1O[C@@H](O[C@H]2[C@@H](O)C[C@H](O[C@H]3[C@@H](O)C[C@H](O[C@H]4CC[C@@]5(C)[C@H](CC[C@@H]6[C@@H]5CC[C@]5(C)[C@@H](C7=CC(=O)OC7)CC[C@]65O)C4)O[C@@H]3C)O[C@@H]2C)C[C@H](O)[C@@H]1O`, “minimum progeny production” read 35% (human adenovirus C5; A549; concentration not given, 72 h; baseline: DMSO control).
`OC[C@H]1O[C@@H](O[C@@H]2[C@@H](O)[C@H](O[C@@H]3[C@@H](O)[C@H](O[C@@H]4[C@@H](O)[C@H](O[C@H]5[C@H](O)[C@@H](CO)OC(O)[C@@H]5O)O[C@H](CO)[C@H]4O)O[C@H](CO)[C@H]3O)O[C@H](CO)[C@H]2O)[C@H](O)[C@@H](O)[C@@H]1O` (stereo partly shown) has a ΔH of -12.9 kcal/mol (Bacteroides thetaiotaomicron; binding, ITC; pH 7.0, 25 °C, middle domain).
For `Cc1cc(C)c2sc(NC(=O)c3cc4ccccc4o3)nc2n1`, the EC50 was > 32000 nM (Japanese encephalitis virus; cytopathic effect, neutral red uptake; Vero 76, SA-14).
`Cc1cnc2nc(C)c(C(=O)NCc3ccccc3)n2c1` gave an MIC of 1.3 µM (Mycobacterium tuberculosis; growth (>90% inhibition); H37Rv, glycerol-alanine-salts medium).
`CCCC(=O)OCSc1ccccc1C(=O)NCCn1cc(C(=O)NCc2cccc(C)n2)c(=O)c2cc3c(cc21)OC(F)(F)O3` has an EC50 of 6520 ± 2100 nM (HIV-1; viral replication, reverse transcriptase; human PBMC, 92HT599 (CXCR4-tropic)).
For `Cc1nc(C(CN)NC(=O)c2ccc(-c3ccc4c(c3)OCO4)[nH]2)sc1CO` (stereo not shown), the IC50 was 3500 ± 900 nM (human immunodeficiency virus 1; viral replication; PBMC; 168 h).

Some of these lines once more:
`CO/N=C(\C(=O)N[C@@H]1C(=O)N2C(C(=O)O)=C(COC(C)=O)CS[C@H]12)c1csc(N)n1` has an MIC of > 16 µg/mL (Pseudomonas aeruginosa; clinical isolate RKI-No_480/15).
Under infection efficiency, `heparin` is recorded as “decreased” (feline infectious peritonitis virus; plaque; fcwf-4, type I strain KU-2; concentration not given).
`CCCc1nn(C)c2c(=O)[nH]c(-c3cc(S(=O)(=O)N4CCN(C)CC4)ccc3OCC)nc12` gave a Cmax of 398 ng/mL (humans, plasma; 100 mg, phase I DDI study, added: vericiguat).
